Measured values pooled from the literature.
A part holds a random share of what one study measured. Several values in a cell are separate wells, animals, samples, runs or records.
Sequence of UniProt Q15349 (whole entry, looked up): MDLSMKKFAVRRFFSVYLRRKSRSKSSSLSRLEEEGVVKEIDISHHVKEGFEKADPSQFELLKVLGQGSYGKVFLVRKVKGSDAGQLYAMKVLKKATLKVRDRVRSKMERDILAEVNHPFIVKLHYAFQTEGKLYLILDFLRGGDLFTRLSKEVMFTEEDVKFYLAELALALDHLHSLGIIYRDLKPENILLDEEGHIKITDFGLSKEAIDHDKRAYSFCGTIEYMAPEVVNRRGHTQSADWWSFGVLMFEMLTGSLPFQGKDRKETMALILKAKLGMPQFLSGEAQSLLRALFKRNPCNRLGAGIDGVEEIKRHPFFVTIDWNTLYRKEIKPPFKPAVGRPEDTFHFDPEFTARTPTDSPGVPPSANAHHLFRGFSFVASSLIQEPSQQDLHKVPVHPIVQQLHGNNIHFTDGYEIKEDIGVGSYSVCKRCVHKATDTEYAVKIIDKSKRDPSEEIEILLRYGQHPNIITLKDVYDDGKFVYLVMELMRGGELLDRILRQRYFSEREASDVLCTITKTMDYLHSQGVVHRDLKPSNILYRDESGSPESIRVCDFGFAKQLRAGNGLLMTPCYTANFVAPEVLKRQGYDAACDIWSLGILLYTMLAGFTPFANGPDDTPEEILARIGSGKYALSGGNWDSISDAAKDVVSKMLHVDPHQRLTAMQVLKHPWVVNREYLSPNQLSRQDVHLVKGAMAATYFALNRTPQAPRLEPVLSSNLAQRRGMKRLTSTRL
Sequence of UniProt P27361 (whole entry, looked up): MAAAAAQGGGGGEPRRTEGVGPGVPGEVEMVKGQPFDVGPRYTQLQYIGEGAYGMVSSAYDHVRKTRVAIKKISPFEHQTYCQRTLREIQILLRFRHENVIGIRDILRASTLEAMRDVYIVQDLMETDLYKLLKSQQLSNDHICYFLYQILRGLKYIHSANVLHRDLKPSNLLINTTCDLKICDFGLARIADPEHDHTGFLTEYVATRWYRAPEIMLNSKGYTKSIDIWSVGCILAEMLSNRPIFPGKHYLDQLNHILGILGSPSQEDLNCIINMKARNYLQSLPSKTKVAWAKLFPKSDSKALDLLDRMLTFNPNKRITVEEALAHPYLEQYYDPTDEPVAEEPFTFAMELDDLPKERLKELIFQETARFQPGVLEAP
Sequence of UniProt P52333 (whole entry, looked up): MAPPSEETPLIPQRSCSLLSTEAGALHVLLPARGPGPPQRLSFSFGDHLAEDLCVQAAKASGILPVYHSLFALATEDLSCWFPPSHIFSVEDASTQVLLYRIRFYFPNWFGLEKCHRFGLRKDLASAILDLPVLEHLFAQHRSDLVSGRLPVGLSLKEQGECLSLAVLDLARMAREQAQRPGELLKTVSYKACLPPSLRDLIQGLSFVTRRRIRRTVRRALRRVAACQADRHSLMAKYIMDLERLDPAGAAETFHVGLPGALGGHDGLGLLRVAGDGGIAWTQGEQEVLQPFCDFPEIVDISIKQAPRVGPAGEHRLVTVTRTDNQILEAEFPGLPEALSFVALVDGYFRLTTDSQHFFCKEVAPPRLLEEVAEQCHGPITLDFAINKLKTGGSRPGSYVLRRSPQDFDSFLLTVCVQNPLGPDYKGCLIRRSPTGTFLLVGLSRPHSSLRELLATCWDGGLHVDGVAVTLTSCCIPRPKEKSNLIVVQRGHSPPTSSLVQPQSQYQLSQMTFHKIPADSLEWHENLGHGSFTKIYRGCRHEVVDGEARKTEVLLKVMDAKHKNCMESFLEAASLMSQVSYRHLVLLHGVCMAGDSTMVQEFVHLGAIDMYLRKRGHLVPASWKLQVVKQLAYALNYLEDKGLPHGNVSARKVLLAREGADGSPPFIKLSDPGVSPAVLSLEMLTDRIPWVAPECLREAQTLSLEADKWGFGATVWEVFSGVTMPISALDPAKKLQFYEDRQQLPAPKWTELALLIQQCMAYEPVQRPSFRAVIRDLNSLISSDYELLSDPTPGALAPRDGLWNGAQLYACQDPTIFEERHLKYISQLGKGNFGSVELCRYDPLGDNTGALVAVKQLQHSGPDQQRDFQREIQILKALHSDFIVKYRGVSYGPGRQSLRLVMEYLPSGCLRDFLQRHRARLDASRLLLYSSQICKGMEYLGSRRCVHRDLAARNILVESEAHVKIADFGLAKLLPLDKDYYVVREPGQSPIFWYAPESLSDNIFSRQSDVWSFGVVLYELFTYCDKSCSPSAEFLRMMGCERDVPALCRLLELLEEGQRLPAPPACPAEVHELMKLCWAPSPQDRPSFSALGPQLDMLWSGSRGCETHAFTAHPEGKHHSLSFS
Sequence of UniProt Q9HC98 (whole entry, looked up): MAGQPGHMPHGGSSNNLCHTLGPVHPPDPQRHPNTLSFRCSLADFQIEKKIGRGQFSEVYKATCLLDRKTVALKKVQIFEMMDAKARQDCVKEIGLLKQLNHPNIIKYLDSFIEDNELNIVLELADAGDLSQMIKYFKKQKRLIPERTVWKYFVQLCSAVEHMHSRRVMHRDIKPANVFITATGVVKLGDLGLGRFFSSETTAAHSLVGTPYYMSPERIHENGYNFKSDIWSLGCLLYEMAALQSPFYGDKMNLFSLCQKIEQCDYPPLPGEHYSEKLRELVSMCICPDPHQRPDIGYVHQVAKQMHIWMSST

Series 1
Target: HLA class I histocompatibility antigen, A alpha chain, allele A*25:01 (Homo sapiens, UniProt P04439)
Read-out: peptide-MHC binding
Molecule type: peptide
Concentration: concentration not given
Sequence | binding
SLMASSPTSI | inactive
LSDLCNFLV | inactive
LSIIFGRSY | inactive
YGSWFGLIY | inactive
FSFFMNENF | inactive
EWAENCYNL | inactive
SHDLAPQFL | inactive
RDRFKRTSF | inactive

Series 2
Compound: CN[C@@H]1C[C@H]2O[C@@](C)([C@@H]1OC)n1c3ccccc3c3c4c(c5c6ccccc6n2c5c31)C(=O)NC4
Read-out: enzyme activity
Mode: inhibitor
Concentration: 0.5 µM
Relative to: control
target | remaining activity
JAK3 (Homo sapiens, UniProt P52333) | 0.738% and 0.781%
NEK6 (Homo sapiens, UniProt Q9HC98) | 88.6% and 110%
MAPK3 (Homo sapiens, UniProt P27361) | 97.2% and 88.4%
RPS6KA2 (Homo sapiens, UniProt Q15349) | 1.61% and 3.06%

Mixed results
CBF1 full length, N-terminal tag: Centromere-binding protein 1, full length, N-terminal tag (CBF1, Saccharomyces cerevisiae, UniProt P17106, residues 1-351)
Sequence of UniProt P17106 (whole entry, looked up): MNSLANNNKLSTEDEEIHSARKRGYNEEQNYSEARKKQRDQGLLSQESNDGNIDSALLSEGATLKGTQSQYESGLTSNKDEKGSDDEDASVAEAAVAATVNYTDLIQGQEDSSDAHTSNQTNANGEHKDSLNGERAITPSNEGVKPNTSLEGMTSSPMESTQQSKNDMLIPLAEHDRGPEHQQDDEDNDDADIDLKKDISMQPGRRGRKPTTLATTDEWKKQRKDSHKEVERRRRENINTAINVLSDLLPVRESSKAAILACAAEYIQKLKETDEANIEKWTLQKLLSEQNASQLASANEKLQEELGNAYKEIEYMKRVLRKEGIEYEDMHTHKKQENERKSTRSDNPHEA
Substance | tested on | test | test system | conditions | how to read | measurement | result
TGTACGAAGCTATATCAGGTGTGTATAGTAGTTAGGGTCTTGATTCGCTTGACGCTGCTG | CBF1 full length, N-terminal tag | protein-binding microarray | double-stranded DNA, one strand shown, in vitro | 0.8 µM, whole 60-bp probe, no competitor | higher = stronger binding | fluorescence intensity | 675 a.u.
C[C@]1(O)CC[C@H]2[C@@H]3CCC4=CC(=O)CC[C@]4(C)[C@@]3(F)[C@@H](O)C[C@@]21C | A-375 |  |  | 100 µM, 18 h |  | viability | 93.7%
O=C1CSC(c2ccccc2Cl)c2cc(Cl)ccc2N1 (stereo not shown) | mouse MPNST tumor cells | high-content nuclear imaging, item: cell number |  | 10 µM, 12 h, mean of 2 replicates | relative to: plate mean, higher = more cells | nuclei count | 1.82 z-score
CTAAAAAAAATAAGTCACGTGCACTCAGTACCCTTCGTCTTGATTCGCTTGACGCTGCTG | CBF1 full length, N-terminal tag | protein-binding microarray | double-stranded DNA, one strand shown, in vitro | 0.8 µM, whole 60-bp probe, no competitor | higher = stronger binding | fluorescence intensity | 27300 a.u.
